# Results pooled from the literature.
# Compare with care: the assays were run in different laboratories. ± gives the spread as reported.
SMILES,test,system,conditions,how to read,measurement,result
C[N+](C)(CCOCCOCCOCCOCCOCCOCCOCCNC(=S)Nc1ccc(CC2CN(CC(=O)[O-])CCN(CC(=O)[O-])CCN2CC(=O)[O-])cc1)C[c-]1cccc1.[64Cu+2].[Fe+2].c1cc[cH-]c1 (stereo not drawn),pretargeted biodistribution,"nude mouse, BxPC-3 xenograft","8 h post-radioligand, 72 h lag time",,tumour uptake,1.1 ± 0.3 %ID/g
Cc1n[nH]c(C)c1CCCOc1cc(C(=O)NCCCCC(NC(=O)CN2CCN(CC(=O)[O-])CCN(CC(=O)[O-])CCN(CC(=O)[O-])CC2)C(=O)NCC2CCC(C(=O)NC(Cc3ccc4ccccc4c3)C(=O)NCCCCC(NC(=O)NC(CCC(=O)O)C(=O)O)C(=O)O)CC2)ccc1F.[68Ga+3] (stereo not drawn),ex vivo biodistribution,"mouse 22Rv1 xenograft, tumour",4 h post-injection,,tumour uptake,6.08 ± 0.78 %ID/g
CCCC[C@H](NC(=O)CNC(=O)CNC(=O)[C@H](CCCCNC(=O)[C@H](CC(=O)O)NC(=O)C(C)c1ccc(CC(C)C)cc1)NC(=O)CN1CCN(CC(=O)O)CCN(CC(=O)O)CCN(CC(=O)O)CC1)C(=O)N[C@H]1CC(=O)NCCCC[C@@H](C(N)=O)NC(=O)[C@H](Cc2c[nH]c3ccccc23)NC(=O)[C@H](CCCNC(=N)N)NC(=O)[C@@H](Cc2ccccc2)NC(=O)[C@H](Cc2c[nH]cn2)NC1=O (stereo partly drawn) [lutetium-177 labelled],,C57 mouse,"intravenous, 2 h, with: NDP-MSH blockade",relative to: tumour over liver,tumour to tissue ratio,1.26
O=C(CCc1cn([C@@H]2O[C@H](C[18F])[C@@H](O)[C@H](O)[C@H]2O)nn1)Nc1ccc(-c2nnc(-c3ccccn3)nn2)nc1,PET imaging,"BALB/c nude mouse, LS174T xenograft, tumour, heart as blood","intravenous, 1 h, with: CC49-TCO 72 h before",relative to: tumour over heart,tumour to blood ratio,0.78
N=C(N)NCCC[C@@H]1NC(=O)[C@@H](NC(=O)CCCCCNC(=O)c2ccc3c(c2)C(=O)OC32c3ccc(O)cc3Oc3cc(O)ccc32)CSSC[C@@H](C(N)=O)NC(=O)[C@H](CC(=O)O)NC(=O)[C@@H]2CCCN2C(=O)CNC(=O)[C@H](CCCCN)NC(=O)[C@H](CC(=O)O)NC(=O)CNC1=O,"ex vivo fluorescence, measured: FAM-labelled peptide","mouse, Lovo-6-luc-1 peritoneal and subcutaneous tumours","intraperitoneal, 0.3 mg, 1 h",relative to: subcutaneous tumours,tumour accumulation,~25%
[18F]CCn1cc(COc2ccc(-c3nncnn3)cc2)nn1,PET imaging,"BALB/c nude mouse, LS174T xenograft, tumour, heart as blood","intravenous, 1 h, with: CC49-TCO 72 h before",relative to: tumour over heart,tumour to blood ratio,0.76
C[N+](C)(CCOCCOCCOCCNC(=S)Nc1ccc(C[C@H]2CN(CC(=O)[O-])CCN(CC(=O)[O-])CCN2CC(=O)[O-])cc1)C[c-]1cccc1.[64Cu+2].[Fe+2].c1cc[cH-]c1,pretargeted biodistribution,"nude mouse, BxPC-3 xenograft","24 h post-radioligand, 72 h lag time",,tumour uptake,1.5 ± 0.5 %ID/g
CCCC[C@H]1C(=O)N(C)[C@@H](CCCC)C(=O)N[C@@H](CCCCNC(=S)Nc2ccc(CN3CCN(CC(=O)O)CCN(CC(=O)O)CC3)cc2)C(=O)N[C@H](C(=O)NCC(N)=O)CSCC(=O)N[C@@H](Cc2ccc(O)cc2)C(=O)N(C)[C@@H](C)C(=O)N[C@@H](CC(N)=O)C(=O)N2CCC[C@H]2C(=O)N[C@@H](Cc2cnc[nH]2)C(=O)N[C@@H](CCC(=O)O)C(=O)N2C[C@H](O)C[C@H]2C(=O)N[C@@H](Cc2c[nH]c3ccccc23)C(=O)N[C@@H](CO)C(=O)N[C@@H](Cc2cn(CC(=O)O)c3ccccc23)C(=O)N1C [fluorine-18 labelled],,"H2444 subcutaneous xenograft, NSG mouse, tumour","intravenous, 60 min",,tumour uptake,10.4 ± 2.63 %ID/g
O[C@@H]1[C@@H](O)[C@H](n2cc(COc3ccc(-c4nncnn4)cc3)nn2)O[C@H](C[18F])[C@H]1O,,"BALB/c nude mouse, LS174T xenograft","intravenous, 1 h, with: CC49-TCO 72 h before",,tumour to muscle ratio,3.6

# Some of these lines once more:
SMILES,test,system,conditions,how to read,measurement,result
C[N+](C)(CCOCCOCCOCCOCCOCCOCCOCCNC(=S)Nc1ccc(CC2CN(CC(=O)[O-])CCN(CC(=O)[O-])CCN2CC(=O)[O-])cc1)C[c-]1cccc1.[64Cu+2].[Fe+2].c1cc[cH-]c1 (stereo not drawn),pretargeted biodistribution,"nude mouse, BxPC-3 xenograft","8 h post-radioligand, 72 h lag time",,tumour uptake,1.1 ± 0.3 %ID/g
